# Published values gathered from unrelated publications.
# Numbers after ± are the reported error.
# FPR1: fMet-Leu-Phe receptor (FPR1, Homo sapiens, UniProt P21462)
# UniProt P21462, sequence (whole entry, looked up): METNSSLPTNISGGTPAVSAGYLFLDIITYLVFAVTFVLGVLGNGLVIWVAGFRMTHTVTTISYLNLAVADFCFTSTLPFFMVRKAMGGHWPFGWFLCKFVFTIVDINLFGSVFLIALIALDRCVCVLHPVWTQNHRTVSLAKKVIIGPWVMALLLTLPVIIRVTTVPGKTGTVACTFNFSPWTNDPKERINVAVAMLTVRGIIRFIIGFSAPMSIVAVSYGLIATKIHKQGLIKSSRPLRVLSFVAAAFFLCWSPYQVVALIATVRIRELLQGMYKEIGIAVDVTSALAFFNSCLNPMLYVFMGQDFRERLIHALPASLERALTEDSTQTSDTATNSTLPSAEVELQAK
# IDE: Insulin-degrading enzyme (IDE, Homo sapiens, UniProt P14735)
# PYL4: PYL4 (Arabidopsis thaliana, UniProt O80920)
# UniProt O80920, sequence (whole entry, looked up): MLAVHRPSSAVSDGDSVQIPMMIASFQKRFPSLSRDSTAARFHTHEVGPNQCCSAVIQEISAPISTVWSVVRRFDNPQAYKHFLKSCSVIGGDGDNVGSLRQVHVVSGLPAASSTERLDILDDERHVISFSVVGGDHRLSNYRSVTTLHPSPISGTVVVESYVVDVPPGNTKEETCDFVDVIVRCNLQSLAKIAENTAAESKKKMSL
# UniProt P11607, sequence (whole entry, looked up): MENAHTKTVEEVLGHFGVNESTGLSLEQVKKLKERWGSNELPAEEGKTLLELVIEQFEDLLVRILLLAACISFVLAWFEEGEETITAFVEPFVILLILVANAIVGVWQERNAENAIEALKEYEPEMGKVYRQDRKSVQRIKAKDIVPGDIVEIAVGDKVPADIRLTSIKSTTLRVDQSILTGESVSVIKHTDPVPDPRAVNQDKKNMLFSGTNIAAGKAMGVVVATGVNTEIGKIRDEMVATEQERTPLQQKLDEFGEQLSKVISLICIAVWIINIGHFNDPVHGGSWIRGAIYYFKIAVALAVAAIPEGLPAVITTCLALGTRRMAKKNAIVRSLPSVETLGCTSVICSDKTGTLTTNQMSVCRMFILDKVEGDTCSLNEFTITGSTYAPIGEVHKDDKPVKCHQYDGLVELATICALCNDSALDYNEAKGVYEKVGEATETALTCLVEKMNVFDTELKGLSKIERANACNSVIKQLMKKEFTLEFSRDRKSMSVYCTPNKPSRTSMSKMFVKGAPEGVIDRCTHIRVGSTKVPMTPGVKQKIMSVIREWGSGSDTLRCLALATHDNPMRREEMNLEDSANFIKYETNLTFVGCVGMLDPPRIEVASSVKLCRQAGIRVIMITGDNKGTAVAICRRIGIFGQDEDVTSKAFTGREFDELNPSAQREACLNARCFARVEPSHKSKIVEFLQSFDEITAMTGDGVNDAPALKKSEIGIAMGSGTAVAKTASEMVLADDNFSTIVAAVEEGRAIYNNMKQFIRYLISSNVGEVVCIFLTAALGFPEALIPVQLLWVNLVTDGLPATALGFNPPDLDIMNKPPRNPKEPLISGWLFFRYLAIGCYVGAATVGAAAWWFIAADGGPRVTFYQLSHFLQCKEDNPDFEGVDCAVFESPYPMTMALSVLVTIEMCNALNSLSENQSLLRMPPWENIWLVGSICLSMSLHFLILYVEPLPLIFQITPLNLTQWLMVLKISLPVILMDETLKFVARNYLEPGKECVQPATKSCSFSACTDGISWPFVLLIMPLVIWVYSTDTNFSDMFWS
# UniProt P07550, sequence (whole entry, looked up): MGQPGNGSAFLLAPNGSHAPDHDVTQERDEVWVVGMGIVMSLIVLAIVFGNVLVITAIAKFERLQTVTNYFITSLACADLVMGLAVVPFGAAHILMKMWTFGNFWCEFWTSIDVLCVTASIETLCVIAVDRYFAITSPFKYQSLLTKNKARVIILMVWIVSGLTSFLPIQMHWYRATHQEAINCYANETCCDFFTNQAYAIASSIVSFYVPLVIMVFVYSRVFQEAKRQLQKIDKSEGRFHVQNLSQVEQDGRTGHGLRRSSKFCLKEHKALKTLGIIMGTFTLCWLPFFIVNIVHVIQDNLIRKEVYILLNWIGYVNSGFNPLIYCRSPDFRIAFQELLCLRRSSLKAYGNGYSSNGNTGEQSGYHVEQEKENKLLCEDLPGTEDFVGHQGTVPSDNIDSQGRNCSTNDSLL
# UniProt P49019, sequence (whole entry, looked up): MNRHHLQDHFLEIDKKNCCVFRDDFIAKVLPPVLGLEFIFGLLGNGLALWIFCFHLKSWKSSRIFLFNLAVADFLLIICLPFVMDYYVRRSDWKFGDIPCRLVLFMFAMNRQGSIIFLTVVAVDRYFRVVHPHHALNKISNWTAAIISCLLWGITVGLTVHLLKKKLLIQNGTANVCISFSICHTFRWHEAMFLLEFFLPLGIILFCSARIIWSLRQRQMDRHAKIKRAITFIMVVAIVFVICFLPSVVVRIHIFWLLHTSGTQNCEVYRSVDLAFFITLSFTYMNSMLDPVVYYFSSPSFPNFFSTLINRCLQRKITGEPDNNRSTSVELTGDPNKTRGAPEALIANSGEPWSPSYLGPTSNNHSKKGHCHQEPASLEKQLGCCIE
# UniProt P37231, sequence (whole entry, looked up): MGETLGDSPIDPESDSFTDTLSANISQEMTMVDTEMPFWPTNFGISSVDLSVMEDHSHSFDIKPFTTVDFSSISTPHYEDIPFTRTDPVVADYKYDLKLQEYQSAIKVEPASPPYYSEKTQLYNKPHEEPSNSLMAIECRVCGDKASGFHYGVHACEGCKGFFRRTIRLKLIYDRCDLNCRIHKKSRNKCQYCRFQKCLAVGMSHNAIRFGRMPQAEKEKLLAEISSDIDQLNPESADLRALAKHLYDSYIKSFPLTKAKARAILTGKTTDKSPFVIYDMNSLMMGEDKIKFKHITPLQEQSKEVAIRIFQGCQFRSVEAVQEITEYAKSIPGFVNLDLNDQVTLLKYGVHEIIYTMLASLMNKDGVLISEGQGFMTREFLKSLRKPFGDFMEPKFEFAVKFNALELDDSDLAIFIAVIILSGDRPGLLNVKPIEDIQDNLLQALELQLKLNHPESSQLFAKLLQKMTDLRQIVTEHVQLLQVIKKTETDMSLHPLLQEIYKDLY
# UniProt P10275, sequence (whole entry, looked up): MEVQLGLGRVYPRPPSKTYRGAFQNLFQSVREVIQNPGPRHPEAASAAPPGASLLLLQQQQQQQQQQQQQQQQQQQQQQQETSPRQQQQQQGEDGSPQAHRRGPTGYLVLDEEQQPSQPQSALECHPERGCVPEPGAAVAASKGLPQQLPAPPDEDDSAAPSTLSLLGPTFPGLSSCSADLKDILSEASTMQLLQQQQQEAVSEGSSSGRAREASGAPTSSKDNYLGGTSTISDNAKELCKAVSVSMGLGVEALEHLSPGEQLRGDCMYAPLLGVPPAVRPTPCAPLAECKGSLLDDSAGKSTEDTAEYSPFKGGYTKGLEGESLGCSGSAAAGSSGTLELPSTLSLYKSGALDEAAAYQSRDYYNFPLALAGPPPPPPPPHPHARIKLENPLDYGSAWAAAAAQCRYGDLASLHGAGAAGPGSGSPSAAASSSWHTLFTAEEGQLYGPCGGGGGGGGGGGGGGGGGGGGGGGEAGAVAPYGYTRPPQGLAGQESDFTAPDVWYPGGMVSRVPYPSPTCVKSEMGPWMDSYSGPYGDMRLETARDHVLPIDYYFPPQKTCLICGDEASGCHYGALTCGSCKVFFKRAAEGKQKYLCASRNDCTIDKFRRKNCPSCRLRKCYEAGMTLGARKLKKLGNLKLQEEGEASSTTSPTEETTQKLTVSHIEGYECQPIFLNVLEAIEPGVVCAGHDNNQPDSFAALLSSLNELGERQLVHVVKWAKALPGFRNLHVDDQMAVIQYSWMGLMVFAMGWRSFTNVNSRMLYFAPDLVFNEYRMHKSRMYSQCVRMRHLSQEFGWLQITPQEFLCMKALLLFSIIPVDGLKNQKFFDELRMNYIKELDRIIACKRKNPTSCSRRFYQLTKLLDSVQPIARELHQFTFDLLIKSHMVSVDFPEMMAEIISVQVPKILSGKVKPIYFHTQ
Structure (SMILES),target,assay,system,setting,EC50 [µM]
N#Cc1ccc(C[C@@H](Nc2nnc(-c3ccc(F)cc3)s2)C(=O)N2CCc3ccccc32)cc1,FPR1,"calcium mobilization, agonist",HL-60 transfected with FPR1,inactive up to 50 µM,> 50
COc1ccccc1-c1ccc([C@@H]2[C@@H](CO)N3CCCCN(S(=O)(=O)c4ccccc4C)C[C@@H]23)cc1,IDE,"enzyme activity, inhibitor, fluorescence kinetic",,added: Mca-RPPGFSAFK(Dnp)-OH substrate,0.25
O=C(Cc1cc(C2CC2)c(-n2cc(CNC(=O)c3cc(Br)co3)nn2)c(C2CC2)c1)NC1(C(=O)O)CCCCC1,PYL4,"phosphatase activity recovery, antagonist",,"added: HAB1, ABA 5000 nM",0.197 ± 0.037
N#Cc1ccc(C[C@@H](NC(=O)c2cc3cc([N+](=O)[O-])ccc3[nH]2)C(=O)N2CCc3ccccc32)cc1,FPR1,"calcium mobilization, agonist",HL-60 transfected with FPR1,inactive up to 50 µM,> 50
Cc1ccccc1-c1ccc([C@H]2[C@@H](CO)N3CCCCN(C(=O)c4cccnc4)C[C@@H]23)cc1,IDE,"enzyme activity, inhibitor, fluorogenic kinetic",,added: Mca-RPPGFSAFK(Dnp)-OH substrate,12.5
Cc1ccc(C(=O)NCc2cn(-c3c(C4CC4)cc(CC(=O)NC4(C(=O)O)CCCCC4)cc3C3CC3)nn2)o1,PYL4,"phosphatase activity recovery, antagonist",,"added: HAB1, ABA 5000 nM",0.549 ± 0.084
CCCCCC(O)CC(=O)O (stereo not shown),"Hydroxycarboxylic acid receptor 3 (HCAR3, Homo sapiens, UniProt P49019)","agonist, cell-based",,,571
Cc1ccccc1-c1ccc([C@@H]2[C@@H](CO)N3C(=O)CN(S(C)(=O)=O)C[C@@H]23)cc1,IDE,"enzyme activity, inhibitor, fluorogenic kinetic",,added: Mca-RPPGFSAFK(Dnp)-OH substrate,1.8
FC1(F)Oc2ccc(CCOCCCCCc3ccccc3)cc2O1,"ATP2A2 (Sus scrofa, UniProt P11607)","ATPase activity, activator, NADH-coupled enzyme",enriched microsomes,,~2
CCO[C@H](COc1ccc(C(F)(F)F)cc1)CSc1ccc(OCC(=O)O)c(C)c1,"Peroxisome proliferator-activated receptor gamma (PPARG, Homo sapiens, UniProt P37231)","receptor activation, agonist, luciferase reporter",,"serum-free, species human",7
COc1ccc(C(=O)c2ccccc2)c(O)c1,"Androgen receptor (AR, Homo sapiens, UniProt P10275)",,human cells,,13.6
COc1ccccc1C#Cc1ccc([C@H]2[C@H]3CN(C(=O)C4CCC4)CCCCN3[C@H]2CO)cc1,IDE,"enzyme activity, inhibitor, fluorogenic kinetic",,added: Mca-RPPGFSAFK(Dnp)-OH substrate,> 100
Cn1cc2c(C(=O)O)ccc(NS(=O)(=O)c3ccc(OCC4CCC4)c(Cl)c3)c2n1,"Beta-2 adrenergic receptor (ADRB2, Homo sapiens, UniProt P07550)",agonist,,,> 10

# Repeated from above:
Structure (SMILES),target,assay,system,setting,EC50 [µM]
COc1ccccc1-c1ccc([C@@H]2[C@@H](CO)N3CCCCN(S(=O)(=O)c4ccccc4C)C[C@@H]23)cc1,IDE,"enzyme activity, inhibitor, fluorescence kinetic",,added: Mca-RPPGFSAFK(Dnp)-OH substrate,0.25
